{"data": "Published values gathered from unrelated publications", "note": "Numbered parts are unrelated; each lists some results of a single study. “And” joins repeats or separate records; there may be more than shown.", "UniProt Q9BWU1, sequence (whole entry, looked up)": "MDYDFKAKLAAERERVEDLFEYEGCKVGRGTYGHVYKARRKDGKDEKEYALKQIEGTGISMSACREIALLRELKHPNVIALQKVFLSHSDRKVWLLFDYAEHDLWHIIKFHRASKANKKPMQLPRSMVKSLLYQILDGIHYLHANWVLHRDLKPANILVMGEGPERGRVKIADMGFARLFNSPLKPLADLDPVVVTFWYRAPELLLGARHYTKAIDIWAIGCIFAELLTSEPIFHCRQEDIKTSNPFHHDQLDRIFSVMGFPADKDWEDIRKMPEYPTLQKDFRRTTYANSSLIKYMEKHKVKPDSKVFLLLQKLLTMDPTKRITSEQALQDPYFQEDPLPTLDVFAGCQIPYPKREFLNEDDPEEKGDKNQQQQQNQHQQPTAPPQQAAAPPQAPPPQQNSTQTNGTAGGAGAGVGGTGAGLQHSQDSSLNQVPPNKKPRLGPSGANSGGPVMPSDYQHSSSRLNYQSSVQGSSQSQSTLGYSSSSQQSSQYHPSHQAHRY", "UniProt Q9UK32, sequence (whole entry, looked up)": "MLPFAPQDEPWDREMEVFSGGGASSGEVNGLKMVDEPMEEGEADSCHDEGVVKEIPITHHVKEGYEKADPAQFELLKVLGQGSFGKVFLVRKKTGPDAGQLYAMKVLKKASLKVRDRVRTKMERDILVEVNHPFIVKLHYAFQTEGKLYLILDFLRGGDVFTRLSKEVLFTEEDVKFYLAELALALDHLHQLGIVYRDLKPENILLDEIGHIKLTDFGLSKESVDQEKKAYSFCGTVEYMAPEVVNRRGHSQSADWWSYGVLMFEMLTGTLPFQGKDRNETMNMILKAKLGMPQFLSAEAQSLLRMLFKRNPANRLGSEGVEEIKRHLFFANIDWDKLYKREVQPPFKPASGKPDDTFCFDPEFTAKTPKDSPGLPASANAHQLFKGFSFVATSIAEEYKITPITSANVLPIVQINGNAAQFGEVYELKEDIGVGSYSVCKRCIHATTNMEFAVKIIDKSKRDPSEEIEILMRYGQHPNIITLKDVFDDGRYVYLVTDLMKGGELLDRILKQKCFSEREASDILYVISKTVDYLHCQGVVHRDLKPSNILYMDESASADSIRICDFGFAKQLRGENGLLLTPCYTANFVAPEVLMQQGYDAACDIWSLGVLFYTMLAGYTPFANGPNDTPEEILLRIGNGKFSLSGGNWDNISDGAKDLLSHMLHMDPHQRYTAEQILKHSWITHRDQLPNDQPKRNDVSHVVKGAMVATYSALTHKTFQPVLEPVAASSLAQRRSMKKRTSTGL", "UniProt P00519, sequence (whole entry, unmodified, looked up)": "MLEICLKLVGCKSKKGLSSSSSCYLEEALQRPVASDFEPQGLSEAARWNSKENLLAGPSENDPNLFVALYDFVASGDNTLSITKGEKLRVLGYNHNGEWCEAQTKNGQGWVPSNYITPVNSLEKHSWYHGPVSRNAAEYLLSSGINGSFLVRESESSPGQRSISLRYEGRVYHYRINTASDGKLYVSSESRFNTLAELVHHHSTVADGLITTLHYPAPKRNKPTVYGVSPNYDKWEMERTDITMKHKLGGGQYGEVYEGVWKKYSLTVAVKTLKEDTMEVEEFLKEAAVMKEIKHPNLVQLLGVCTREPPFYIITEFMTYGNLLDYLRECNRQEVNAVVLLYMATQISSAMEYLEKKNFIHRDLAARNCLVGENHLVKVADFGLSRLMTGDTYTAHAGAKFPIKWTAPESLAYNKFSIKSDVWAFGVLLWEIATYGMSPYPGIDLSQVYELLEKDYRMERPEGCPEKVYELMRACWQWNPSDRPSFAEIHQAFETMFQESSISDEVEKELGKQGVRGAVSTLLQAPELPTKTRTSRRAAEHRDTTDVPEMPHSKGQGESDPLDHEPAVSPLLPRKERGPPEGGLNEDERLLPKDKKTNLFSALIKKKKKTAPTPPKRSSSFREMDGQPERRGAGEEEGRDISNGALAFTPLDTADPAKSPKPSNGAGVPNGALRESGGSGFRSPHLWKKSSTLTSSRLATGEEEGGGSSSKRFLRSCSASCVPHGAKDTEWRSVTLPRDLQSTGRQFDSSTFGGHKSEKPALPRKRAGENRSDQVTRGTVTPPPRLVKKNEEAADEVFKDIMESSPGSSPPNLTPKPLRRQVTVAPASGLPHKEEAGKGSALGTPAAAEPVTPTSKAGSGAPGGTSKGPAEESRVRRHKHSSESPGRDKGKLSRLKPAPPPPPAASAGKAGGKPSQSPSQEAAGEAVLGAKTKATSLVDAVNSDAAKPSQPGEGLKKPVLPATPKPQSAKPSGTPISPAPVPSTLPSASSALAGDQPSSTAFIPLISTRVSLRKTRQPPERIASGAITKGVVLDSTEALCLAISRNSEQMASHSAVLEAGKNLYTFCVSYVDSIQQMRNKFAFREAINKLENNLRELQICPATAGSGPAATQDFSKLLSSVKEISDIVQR", "UniProt P42336, sequence (whole entry, unmodified, looked up)": "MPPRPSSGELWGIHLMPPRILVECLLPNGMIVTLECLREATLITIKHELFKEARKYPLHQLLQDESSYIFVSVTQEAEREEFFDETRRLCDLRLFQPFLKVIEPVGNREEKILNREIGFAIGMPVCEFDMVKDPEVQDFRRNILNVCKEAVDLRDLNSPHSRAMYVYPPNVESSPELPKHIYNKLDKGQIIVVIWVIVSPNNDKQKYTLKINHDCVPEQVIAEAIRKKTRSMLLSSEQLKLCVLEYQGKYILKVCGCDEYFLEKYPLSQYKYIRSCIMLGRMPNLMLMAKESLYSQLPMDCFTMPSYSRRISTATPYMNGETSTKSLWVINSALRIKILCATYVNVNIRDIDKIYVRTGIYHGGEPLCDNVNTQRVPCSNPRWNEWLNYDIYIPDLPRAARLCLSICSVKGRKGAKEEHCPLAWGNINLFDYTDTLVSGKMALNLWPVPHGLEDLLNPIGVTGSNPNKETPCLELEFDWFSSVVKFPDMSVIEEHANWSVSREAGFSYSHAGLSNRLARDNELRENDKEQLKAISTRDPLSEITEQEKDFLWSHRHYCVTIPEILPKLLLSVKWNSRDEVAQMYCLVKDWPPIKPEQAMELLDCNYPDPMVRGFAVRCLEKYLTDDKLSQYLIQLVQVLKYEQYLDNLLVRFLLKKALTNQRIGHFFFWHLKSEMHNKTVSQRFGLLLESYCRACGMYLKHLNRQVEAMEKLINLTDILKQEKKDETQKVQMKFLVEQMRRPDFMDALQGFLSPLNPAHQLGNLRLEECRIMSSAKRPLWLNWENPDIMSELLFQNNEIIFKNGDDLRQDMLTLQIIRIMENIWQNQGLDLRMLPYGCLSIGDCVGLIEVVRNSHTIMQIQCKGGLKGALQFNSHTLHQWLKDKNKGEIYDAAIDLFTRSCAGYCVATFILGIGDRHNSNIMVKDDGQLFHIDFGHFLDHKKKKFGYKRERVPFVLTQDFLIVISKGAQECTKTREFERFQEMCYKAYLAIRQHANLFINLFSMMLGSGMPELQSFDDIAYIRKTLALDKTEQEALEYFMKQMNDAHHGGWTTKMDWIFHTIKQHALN"}
{"data": "Study 1", "organism": "Sarcocystis neurona", "effect on": "parasite activity", "tested at": "10 µM", "time": "96 h"}
{"Structure (SMILES)": "Oc1c(Cl)cc(Cl)c(Cl)c1Cc1c(O)c(Cl)cc(Cl)c1Cl", "activity class": "active"}
{"Structure (SMILES)": "CC(C)NCC(O)c1ccc(NS(C)(=O)=O)cc1 (centres unmarked)", "activity class": "inactive"}
{"Structure (SMILES)": "C[C@H]1c2cccc(O)c2C(=O)C2=C(O)[C@]3(O)C(=O)C(C(N)=O)=C(O)[C@@H](N(C)C)[C@@H]3[C@@H](O)[C@@H]21", "activity class": "inactive"}
{"Structure (SMILES)": "CC(C)NCC(O)COc1ccc(COCCOC(C)C)cc1 (centres unmarked)", "activity class": "inactive"}
{"Structure (SMILES)": "Cc1[nH]c(=O)c(C#N)cc1-c1ccncc1", "activity class": "inactive"}
{"Structure (SMILES)": "C=CC1=C(C(=O)O)N2C(=O)[C@@H](NC(=O)/C(=N\\O)c3csc(N)n3)[C@H]2SC1", "activity class": "inactive"}
{"Structure (SMILES)": "CC1CNc2c(cccc2S(=O)(=O)N[C@@H](CCCNC(=N)N)C(=O)N2CC[C@@H](C)C[C@@H]2C(=O)O)C1 (some centres unmarked)", "activity class": "inactive"}
{"Structure (SMILES)": "O=C1N[C@H](C(=O)O)CS1", "activity class": "inactive"}
{"data": "Study 2", "SMILES": "COc1ccc(-c2c(Nc3ccccn3)[nH]c3c(C4=CCCCC4)c(-c4ccccc4)nn3c2=O)cc1", "technique": "LC-MS/MS", "item": "methionine", "host": "human", "medium": "plasma", "route": "oral"}
{"setting": "400 mg once daily", "change from baseline": "119000 ng/mL and 70300 ng/mL and 103000 ng/mL and 122000 ng/mL and 56900 ng/mL and 43000 ng/mL"}
{"setting": "50 mg once daily", "change from baseline": "86200 ng/mL and 92700 ng/mL and 32900 ng/mL"}
{"setting": "150 mg once daily", "change from baseline": "82500 ng/mL and 221000 ng/mL and 102000 ng/mL and 190000 ng/mL and 103000 ng/mL"}
{"data": "Study 3", "target": "RAF proto-oncogene serine/threonine-protein kinase (RAF1, Homo sapiens, UniProt P04049)", "effect on": "enzyme activity", "mode": "inhibitor", "tested at": "0.5 µM", "reference": "control", "UniProt P04049, sequence (whole entry, looked up)": "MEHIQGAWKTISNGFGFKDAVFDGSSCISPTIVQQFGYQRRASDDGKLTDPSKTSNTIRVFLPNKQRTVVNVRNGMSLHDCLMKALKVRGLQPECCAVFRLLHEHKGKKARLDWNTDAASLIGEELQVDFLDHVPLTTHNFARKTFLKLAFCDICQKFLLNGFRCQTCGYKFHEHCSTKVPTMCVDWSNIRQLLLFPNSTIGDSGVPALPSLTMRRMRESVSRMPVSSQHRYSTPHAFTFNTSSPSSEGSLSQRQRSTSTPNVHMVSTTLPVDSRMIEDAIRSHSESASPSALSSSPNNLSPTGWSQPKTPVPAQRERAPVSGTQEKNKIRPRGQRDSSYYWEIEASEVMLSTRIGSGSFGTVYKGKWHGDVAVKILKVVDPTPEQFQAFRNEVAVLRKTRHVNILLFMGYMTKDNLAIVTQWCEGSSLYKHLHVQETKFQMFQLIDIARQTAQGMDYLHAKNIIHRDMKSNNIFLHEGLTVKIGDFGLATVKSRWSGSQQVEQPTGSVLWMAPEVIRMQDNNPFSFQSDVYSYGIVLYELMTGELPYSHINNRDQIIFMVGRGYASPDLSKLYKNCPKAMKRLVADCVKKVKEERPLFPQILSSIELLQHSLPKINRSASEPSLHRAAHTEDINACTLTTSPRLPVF"}
{"SMILES": "O=S(=O)(NCCNC/C=C/c1ccc(Br)cc1)c1cccc2cnccc12", "remaining activity": "96.4%"}
{"SMILES": "Oc1ccc(Nc2nc(-c3ccc(Cl)cc3)cs2)cc1", "remaining activity": "95.7%"}
{"SMILES": "Cc1ccc(NC2=CC(=O)c3sc(C)nc3C2=O)cc1", "remaining activity": "90.5%"}
{"SMILES": "CCc1[nH]c(-c2ccc(OC)cc2)nc1-c1ccncc1", "remaining activity": "93.4%"}
{"SMILES": "CC(=O)c1ccc(N2CCOCC2)cc1O", "remaining activity": "96.2%"}
{"SMILES": "N#CC(=C(N)Sc1ccc(N)cc1)c1ccccc1C(F)(F)F", "remaining activity": "103%"}
{"SMILES": "NC(=O)c1ccc(N(C(N)=O)c2c(F)cccc2F)nc1-c1ccc(F)cc1F", "remaining activity": "97.5%"}
{"SMILES": "O=C1NC(=O)C(c2c[nH]c3ccccc23)=C1c1c[nH]c2ccccc12", "remaining activity": "122%"}
{"SMILES": "O=C1Cc2c([nH]c3ccc([N+](=O)[O-])cc23)-c2ccccc2N1", "remaining activity": "114%"}
{"SMILES": "Fc1ccc(-c2nc3n(c2-c2ccncc2)CCS3)cc1", "remaining activity": "91.1%"}
{"SMILES": "Nc1nccc(-c2c(-c3ccc(F)cc3)ncn2C2CCNCC2)n1", "remaining activity": "90.9%"}
{"data": "Study 4", "Compound": "C[C@H](NC(=O)c1cnc2n1[C@](C)(Cc1ccc(C#N)cc1)C(=O)N2c1cc(Cl)c(F)c(Cl)c1)C(=O)NC1(c2ccccn2)CC1", "tested at": "1 µM"}
{"target": "Serine/threonine-protein kinase WNK3 (WNK3, Homo sapiens, UniProt Q9BYP7)", "assay": "cell-free assay, competition with immobilised ligand", "remaining binding [%]": 78}
{"target": "Mitogen-activated protein kinase kinase kinase 6 (MAP3K6, Homo sapiens, UniProt O95382)", "assay": "cell-free assay, competition with immobilised ligand", "remaining binding [%]": 100}
{"target": "Tyrosine-protein kinase ABL1, non-phosphorylated (ABL1, Homo sapiens, UniProt P00519, F317L)", "assay": "cell-free assay, competition with immobilised ligand", "remaining binding [%]": 98}
{"target": "Receptor-type tyrosine-protein kinase FLT3 (FLT3, Homo sapiens, UniProt P36888, D835H)", "assay": "cell-free assay, competition with immobilised ligand", "remaining binding [%]": 100}
{"target": "Phosphatidylinositol 4,5-bisphosphate 3-kinase catalytic subunit alpha isoform (PIK3CA, Homo sapiens, UniProt P42336, E542K)", "assay": "cell-free assay, competition with immobilised ligand", "remaining binding [%]": 100}
{"target": "Ribosomal protein S6 kinase alpha-6, C-terminal kinase domain (RPS6KA6, Homo sapiens, UniProt Q9UK32)", "assay": "cell-free assay, competition with immobilised ligand", "remaining binding [%]": 100}
{"target": "Cyclin-dependent kinase 19 (CDK19, Homo sapiens, UniProt Q9BWU1)", "assay": "competition binding", "remaining binding [%]": 81}
{"note": "A few entries again (study 1):"}
{"Structure (SMILES)": "Oc1c(Cl)cc(Cl)c(Cl)c1Cc1c(O)c(Cl)cc(Cl)c1Cl", "activity class": "active"}
{"Structure (SMILES)": "CC(C)NCC(O)c1ccc(NS(C)(=O)=O)cc1 (centres unmarked)", "activity class": "inactive"}
{"Structure (SMILES)": "C[C@H]1c2cccc(O)c2C(=O)C2=C(O)[C@]3(O)C(=O)C(C(N)=O)=C(O)[C@@H](N(C)C)[C@@H]3[C@@H](O)[C@@H]21", "activity class": "inactive"}
{"Structure (SMILES)": "CC(C)NCC(O)COc1ccc(COCCOC(C)C)cc1 (centres unmarked)", "activity class": "inactive"}
{"Structure (SMILES)": "Cc1[nH]c(=O)c(C#N)cc1-c1ccncc1", "activity class": "inactive"}
